Published values pooled from the literature.
A part holds a random share of what one study measured. Positions count from the first letter of the parent shown.

Series 1 — technique: RNA Bind-n-Seq; form: RNA; matrix: in vitro; concentration: not given; notes: RNA with constant flanks, ends assumed; baseline: input RNA pool; reading: higher = stronger binding
Target: RING finger protein unkempt homolog, zinc fingers 1-6, GST-SBP tag (UNK, Homo sapiens, UniProt Q9C0B0, residues 30-357)
Shared flanks, not repeated: GGGAGUUCUACAGUCCGACGAUC … CAACAGAGGAUUGAGCAUCA
Construct (chain): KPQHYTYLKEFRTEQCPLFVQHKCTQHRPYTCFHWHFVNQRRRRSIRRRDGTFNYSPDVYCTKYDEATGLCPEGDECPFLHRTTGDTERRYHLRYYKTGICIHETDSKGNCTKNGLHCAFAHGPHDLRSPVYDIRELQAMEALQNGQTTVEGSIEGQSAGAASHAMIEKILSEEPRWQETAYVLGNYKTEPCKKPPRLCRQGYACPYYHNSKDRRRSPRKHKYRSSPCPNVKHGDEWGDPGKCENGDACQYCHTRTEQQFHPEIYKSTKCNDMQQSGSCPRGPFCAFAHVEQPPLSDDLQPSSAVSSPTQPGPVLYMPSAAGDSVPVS
| Strand | bound/input enrichment [ratio] |
| --- | --- |
| UCUAGAAUGUCUUCAACUAAAUCAAGUGGAAGUGAAUCAGACAGAUCAGAAAGGCCUGCAUCCGUACGCCAGUCUACUUUCAUCAAAGAAGCCCCAAGCCCAACCCUGAGGAGGAAACUG | 0.115 |
| GAGGAAGAGAAUGUUGUUUUAAAGUUCUCUGAACAGGGGGGAACCCCACAGAAUGUGGCCACCCGCAGCUCCCUCACAGCACAUCUCAGAAGCCUCUCCAAAGGAGAUUCCCCUGUGACU | 0.161 |
| UGGACAGCUGAUAAAUUUAAUCCUUCUUUGUAAUACUUUCUAUGUGACAUUUCUCUUCCCCUCCGAAACACUGCAAAUUUUAACUGUAGGUAUGAUCUCUUCUGGUGUUGACUGGACUGC | 2.09 |
| GGGCACUGCAGCGUUGGAACGUGAGCCUCGGAUUUCCUGGCCCCUCUACUGUAAAUGUGCCUCCGCCUAAGCCUCCCAUCCUGUGUUAGCGUUGCCUGGUGCGGGGCAGGGCCUAACAAG | 0.106 |
| UUGGAAAAUGGAUAUACUUUAUUUGACUACGACGUUGGACUGAAUGAUAUAAUUCAGCUGCCCGUUCGUCCAGACUCCAGUCUUCCUAGCACAUCUAAGCAGAAUGAUGCUCAGGUUAAA | 0.742 |
| UUUGAUGAGUUCAGAACAGUGCUGUAACUGUUUUUCCUACUUCUUCAAUGGAAGGAUUGUCCUCCGAUCUUCCCACCAUCACAAAUGAAUUUGAAGAUGAAAAGAAACUCAGUUGCUCAU | 0.0724 |
| GUACCACCUGUCGCGGCGCGAGACCUCUGGUGAAAGAAAAGAUGUUGUCCCGGUUAAGAGCCGUUUCCACCACUUGUACUUUGGCAUGUCGACAUUUGCACAUAAAAGAAAAAGGCAAGC | 0.0914 |
| UGUGUGUGUGUGUGUGUGUGUGUGUGUGUGUGUGUGUGAAUUUUCUAUCGGCCUGGAUAUAUCCGCAGGGUUUGAAUGUAGUUUUGGCCUUUGGCCAUUAUAUACUUCUAUUAAAAUCCA | 0.56 |

Series 2 — target: UBE2Q1 UBC core domain (UniProt Q7Z7E8); technique: yeast two-hybrid; matrix: yeast; notes: mostly zero background; baseline: not given; reading: higher = stronger interaction
B1: CBLL1 RING domain (UniProt Q75N03); chain GEKDDTPVHFCDKCGLPIKIYGRMIPCKHVFCYDCAILHEKKGDKMCPGCSDPVQRIEQCT
B2: TRIM74 RING domain (UniProt Q86UV6); chain SLLELEDWLQCPICLEVFKESLMLQCGHSYCKGCLVSLSYHLDTKVRCPMCWQVVDGSSSLP
B3: MDM2 RING domain (UniProt Q00987); chain TQDKEESVESSLPLNAIEPCVICQGRPKNGCIVHGKTGHLMACFTCAKKLKKRNKPCPVCRQPIQMIVLTYFP
B4: RNF17 RING domain (UniProt Q9BXT8); chain SQPWGAAEIQCTRCGRRVSRSSGHHCELQCGHAFCELCLLMTEECTTIICPDCEVATAVNTRQR
B5: NHLRC1 RING domain (UniProt Q6VVB1); chain MREAEISLLECKVCFEKFGHRQQRRPRNLSCGHVVCLACVAALAHPRTLALECPFCRRACRGCDTSD
B6: ARIH1 RING domain (UniProt Q9Y4X5); chain NTRSSAQDMPCQICYLNYPNSYFTGLECGHKFCMQCWSEYLTTKIMEEGMGQTISCPAHGCDILVDDNTVM
Residues (chain): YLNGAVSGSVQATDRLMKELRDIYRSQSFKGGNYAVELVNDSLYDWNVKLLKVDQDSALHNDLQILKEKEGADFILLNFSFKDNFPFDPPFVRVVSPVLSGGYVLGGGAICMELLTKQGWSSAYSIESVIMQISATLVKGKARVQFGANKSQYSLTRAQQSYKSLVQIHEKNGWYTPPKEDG
| Molecule | lacZ reporter activity |
| --- | --- |
| B1 (CBLL1 RING domain) | 0 |
| B2 (TRIM74 RING domain) | 0 |
| VPADASPDSKCPICLDRFDNVSYLDRCLHKFCFRCVQEWSKNKAECPLCKQPFDSIFHSV (TOPORS RING domain (UniProt Q9NS56)) | 0 |
| AAQLLEEKLTCAICLGLYQDPVTLPCGHNFCGACIRDWWDRCGKACPECREPFPDGAELR (TRIM65 RING domain (UniProt Q6PJ69)) | 0 |
| MEEMEEELKCPVCGSFYREPIILPCSHNLCQACARNILVQTPESESPQSHRAAGSGVSDY (TRIM9 RING domain (UniProt Q9C026)) | 0 |
| B3 (MDM2 RING domain) | 0 |
| B4 (RNF17 RING domain) | 0 |
| B5 (NHLRC1 RING domain) | 0 |
| B6 (ARIH1 RING domain) | 0 |
| FLSKVEETFQCICCQELVFRPITTVCQHNVCKDCLDRSFRAQVFSCPACRYDLGRSYAMQ (UHRF1 RING domain (UniProt Q96T88)) | 0 |
| PLRRLQEEKLCKICMDRHIAVVFIPCGHLVTCKQCAEAVDRCPMCSAVIDFKQRVF (BIRC8 RING domain (UniProt Q96P09)) | 0 |

Series 3 — target: CCND1, cyclin fold, Cln2 fusion (human); technique: yeast growth competition, sequencing; matrix: yeast; notes: strong parent motif; baseline: not given; reading: higher = stronger binding
Starting sequence: RBL1 docking peptide (human); GSAKRRLFGEDPP; partner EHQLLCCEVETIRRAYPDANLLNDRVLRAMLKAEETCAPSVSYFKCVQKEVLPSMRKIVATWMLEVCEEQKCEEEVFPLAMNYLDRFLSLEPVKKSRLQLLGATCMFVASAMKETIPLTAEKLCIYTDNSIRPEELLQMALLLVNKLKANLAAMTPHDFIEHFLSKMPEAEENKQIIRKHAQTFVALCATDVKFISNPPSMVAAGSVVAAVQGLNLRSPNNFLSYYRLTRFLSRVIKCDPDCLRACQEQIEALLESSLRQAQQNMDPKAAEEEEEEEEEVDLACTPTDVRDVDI
| Variant | normalised enrichment score |
| --- | --- |
| P12M | 1.62 |
| P13F | 1.41 |
| R6D | 0.132 |
| E10M | 0.829 |
| F8Q | 0.14 |
| R6K | 2.62 |
| D11Q | 1.1 |
| G9L | 2.88 |
| G9R | 1.37 |
| R5N | 0.582 |
| K4V | 2.25 |
| P12T | 2.46 |
| K4M | 1.28 |
| R6F | 0.566 |
| D11K | 0.806 |
| P12G | 1.51 |
| A3F | 0.49 |
| D11W | 0.812 |
| S2F | 0.416 |
| G9H | 2.01 |
| E10L | 0.68 |

Series 4 — technique: universal PBM; form: double-stranded DNA, one strand shown; matrix: in vitro; concentration: 600 nM; reading: higher = stronger binding
Target: Sal-like protein 4, full length isoform A (SALL4, Homo sapiens, UniProt Q9UJQ4, residues 1-1053)
UniProt Q9UJQ4, sequence (whole entry, looked up): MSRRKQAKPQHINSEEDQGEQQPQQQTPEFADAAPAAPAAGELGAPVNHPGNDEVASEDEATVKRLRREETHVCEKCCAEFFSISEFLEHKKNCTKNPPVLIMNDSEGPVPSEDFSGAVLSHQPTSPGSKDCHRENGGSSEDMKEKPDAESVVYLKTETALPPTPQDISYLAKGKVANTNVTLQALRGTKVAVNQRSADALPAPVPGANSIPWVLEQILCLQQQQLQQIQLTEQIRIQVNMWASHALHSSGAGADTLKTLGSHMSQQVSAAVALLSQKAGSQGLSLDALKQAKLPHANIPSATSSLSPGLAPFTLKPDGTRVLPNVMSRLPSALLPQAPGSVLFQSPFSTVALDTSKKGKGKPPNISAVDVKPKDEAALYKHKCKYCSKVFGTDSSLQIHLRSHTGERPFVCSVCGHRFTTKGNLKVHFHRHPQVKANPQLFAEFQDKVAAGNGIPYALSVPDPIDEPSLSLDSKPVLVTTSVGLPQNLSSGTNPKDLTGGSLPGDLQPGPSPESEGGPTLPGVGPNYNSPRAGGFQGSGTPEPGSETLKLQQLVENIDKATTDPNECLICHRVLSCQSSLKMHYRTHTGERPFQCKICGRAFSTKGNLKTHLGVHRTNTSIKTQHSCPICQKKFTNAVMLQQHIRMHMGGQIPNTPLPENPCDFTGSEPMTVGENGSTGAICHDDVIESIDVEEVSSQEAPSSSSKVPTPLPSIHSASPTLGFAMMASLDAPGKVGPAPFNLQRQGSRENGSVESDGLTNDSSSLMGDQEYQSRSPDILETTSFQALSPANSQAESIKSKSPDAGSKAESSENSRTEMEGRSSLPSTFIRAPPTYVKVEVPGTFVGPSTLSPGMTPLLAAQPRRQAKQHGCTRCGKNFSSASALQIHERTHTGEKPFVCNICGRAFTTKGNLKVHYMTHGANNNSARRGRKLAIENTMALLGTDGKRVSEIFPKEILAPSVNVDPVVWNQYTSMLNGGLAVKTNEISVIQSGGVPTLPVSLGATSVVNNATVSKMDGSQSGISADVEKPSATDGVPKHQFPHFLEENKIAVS
Notes: 8-mer, flanks averaged, mean of replicates
| Strand | E-score |
| --- | --- |
| CCCGGACA | -0.117 |
| AGCAAATC | 0.125 |
| CCTTTTAA | 0.0828 |
| ATCAGCGC | -0.149 |
| CCCCTCCC | -0.299 |
| ACTATCGA | 0.0424 |
| ACTGTAAA | 0.254 |
| TAAAAGCA | 0.136 |
| GAGCTCTA | -0.133 |
| CGTGTAAA | 0.0186 |
| CGCAGGAA | -0.134 |
| AGATTTGC | 0.0654 |
| GCTACAGA | -0.0202 |
| CCTTCCCG | -0.193 |
| CATGGGCG | -0.361 |
| AGTTAGTG | -0.00312 |
| GCGGTCAA | -0.106 |
| CTTTCACA | 0.162 |
| ACGAGGCG | -0.195 |
| ATAACCGC | 0.108 |
